Assay results gathered from unrelated publications.
Lines come from different studies, so protocols differ. ± gives the spread as reported. Non-standard residues stand in square brackets, D forms with d. Square brackets hold non-standard residues; d marks the D form. Primed or numbered codes have the meaning given here. Where no end group is shown, it is not given here. Ends that are not written are not given here. No end group written: not given here. * marks the point of attachment. *: point of attachment.
RPA1: RPA1 1-120 (Homo sapiens, UniProt P27694)
UniProt P27694, sequence (whole entry, looked up): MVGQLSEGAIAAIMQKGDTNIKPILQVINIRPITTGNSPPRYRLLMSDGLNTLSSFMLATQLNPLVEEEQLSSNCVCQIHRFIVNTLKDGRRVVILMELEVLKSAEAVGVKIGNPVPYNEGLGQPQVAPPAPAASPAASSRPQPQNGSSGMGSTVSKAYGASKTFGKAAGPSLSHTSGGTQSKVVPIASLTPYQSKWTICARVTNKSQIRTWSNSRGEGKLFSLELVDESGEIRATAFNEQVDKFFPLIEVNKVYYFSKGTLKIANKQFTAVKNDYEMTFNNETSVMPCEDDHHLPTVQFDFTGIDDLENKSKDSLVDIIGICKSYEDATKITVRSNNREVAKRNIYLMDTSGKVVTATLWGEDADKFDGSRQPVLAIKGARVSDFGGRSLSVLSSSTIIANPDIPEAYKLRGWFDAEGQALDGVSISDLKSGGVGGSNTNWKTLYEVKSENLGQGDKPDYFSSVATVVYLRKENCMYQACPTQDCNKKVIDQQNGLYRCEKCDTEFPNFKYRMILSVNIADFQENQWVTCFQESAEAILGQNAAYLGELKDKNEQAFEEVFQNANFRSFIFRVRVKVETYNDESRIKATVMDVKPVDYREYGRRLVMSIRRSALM
T1: BCR GAP domain; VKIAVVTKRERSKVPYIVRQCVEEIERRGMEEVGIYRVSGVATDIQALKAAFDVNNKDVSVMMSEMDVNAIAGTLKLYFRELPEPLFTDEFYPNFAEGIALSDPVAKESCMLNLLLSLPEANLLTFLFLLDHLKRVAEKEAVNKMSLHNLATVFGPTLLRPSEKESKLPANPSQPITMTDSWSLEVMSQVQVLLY
B1: DBI (Mus musculus, UniProt P31786); Cy5 label; sequence looked up; chain MSQAEFDKAAEEVKRLKTQPTDEEMLFIYSHFKQATVGDVNTDRPGLLDLKGKAKWDSWNKLKGTSKESAMKTYVEKVDELKKKYGI
B2: adrenodoxin (Homo sapiens, UniProt P10109); RED dye on amines; sequence looked up; chain SSSEDKITVHFINRDGETLTTKGKVGDSLLDVVVENNLDIDGFGACEGTLACSTCHLIFEDHIYEKLDAITDEENDMLDLAYGLTDRSRLGCQICLTKSMDNMTVRVPETVADARQSIDVGKTS
B3: Leptin mature (Mus musculus, UniProt P41160); Pluronic P85 on lysines, disulfide linker; sequence looked up; chain VPIQKVQDDTKTLIKTIVTRINDISHTQSVSAKQRVTGLDFIPGLHPILSLSKMDQTLAVYQQVLTSLPSQNVLQIANDLENLRDLLHLLAFSKSCSLPQTSGLQKPESLDGVLEASLYSTEVVALSRLQGSLQDILQQLDVSPEC
B4: Tiam1 PH-CC-Ex domain; chain AAQGTVRKAGALAVKNFLVHKKNKKVESATRRKWKHYWVSLKGCTLFFYETDGRSGIDHNSVPKHAVWVENSIVQAVPEHPKKDFVFCLSNSLGDAFLFQTTSQTELENWITAIHSACAAAVARHHHKEDTLRLLKSEIKKLEQKIDMDEKMKKMGEMQLSSVTDSKKKKTILDQIFVWEQNLEQFQMDLFRFRCYLASLQGGELPNPKRLLAFASRPTKVAMGRLGIFSVSSFHALVAARTGEIGVRRRTQAMSRSASKRRSRFSSLWGLDTT
B5: CLASP1/GFP 1-654 (Homo sapiens); chain MEPRMESCLAQVLQKDVGKRLQVGQELIDYFSDKQKSADLEHDQTMLDKLVDGLATSWVNSSNYKVVLLGMDILSALVTRLQDRFKAQIGTVLPSLIDRLGDAKDSVREQDQTLLLKIMDQAANPQYVWDRMLGGFKHKNFRTREGICLCLIATLNASGAQTLTLSKIVPHICNLLGDPNSQVRDAAINSLVEIYRHVGERVRADLSKKGLPQSRLNVIFTKFDEVQKSGNMIQSANDKNFDDEDSVDGNRPSSASSTSSKAPPSSRRNVGMGTTRRLGSSTLGSKSSAAKEGAGAVDEEDFIKAFDDVPVVQIYSSRDLEESINKIREILSDDKHDWEQRVNALKKIRSLLLAGAAEYDNFFQHLRLLDGAFKLSAKDLRSQVVREACITLGHLSSVLGNKFDHGAEAIMPTIFNLIPNSAKIMATSGVVAVRLIIRHTHIPRLIPVITSNCTSKSVAVRRRCFEFLDLLLQEWQTHSLERHISVLAETIKKGIHDADSEARIEARKCYWGFHSHFSREAEHLYHTLESSYQKALQSHLKNSDSIVSLPQSDRSSSSSQESLNRPLSAKRSPTGSTTSRASTVSTKSVSTTGSLQRSRSDIDVNAAASAKSKVSSSSGTTPFSSAAALPPGSYASLGRIRTRRQSSGSATNVA
B6: FADD 3-81 (Homo sapiens, UniProt Q13158); sequence looked up; chain PFLVLLHSVSSSLSSSELTELKFLCLGRVGKRKLERVQSGLDLFSMLLEQNDLEPGHTELLRELLASLRRHDLLRRVDD
UniProt P06400, sequence (whole entry, unmodified, looked up): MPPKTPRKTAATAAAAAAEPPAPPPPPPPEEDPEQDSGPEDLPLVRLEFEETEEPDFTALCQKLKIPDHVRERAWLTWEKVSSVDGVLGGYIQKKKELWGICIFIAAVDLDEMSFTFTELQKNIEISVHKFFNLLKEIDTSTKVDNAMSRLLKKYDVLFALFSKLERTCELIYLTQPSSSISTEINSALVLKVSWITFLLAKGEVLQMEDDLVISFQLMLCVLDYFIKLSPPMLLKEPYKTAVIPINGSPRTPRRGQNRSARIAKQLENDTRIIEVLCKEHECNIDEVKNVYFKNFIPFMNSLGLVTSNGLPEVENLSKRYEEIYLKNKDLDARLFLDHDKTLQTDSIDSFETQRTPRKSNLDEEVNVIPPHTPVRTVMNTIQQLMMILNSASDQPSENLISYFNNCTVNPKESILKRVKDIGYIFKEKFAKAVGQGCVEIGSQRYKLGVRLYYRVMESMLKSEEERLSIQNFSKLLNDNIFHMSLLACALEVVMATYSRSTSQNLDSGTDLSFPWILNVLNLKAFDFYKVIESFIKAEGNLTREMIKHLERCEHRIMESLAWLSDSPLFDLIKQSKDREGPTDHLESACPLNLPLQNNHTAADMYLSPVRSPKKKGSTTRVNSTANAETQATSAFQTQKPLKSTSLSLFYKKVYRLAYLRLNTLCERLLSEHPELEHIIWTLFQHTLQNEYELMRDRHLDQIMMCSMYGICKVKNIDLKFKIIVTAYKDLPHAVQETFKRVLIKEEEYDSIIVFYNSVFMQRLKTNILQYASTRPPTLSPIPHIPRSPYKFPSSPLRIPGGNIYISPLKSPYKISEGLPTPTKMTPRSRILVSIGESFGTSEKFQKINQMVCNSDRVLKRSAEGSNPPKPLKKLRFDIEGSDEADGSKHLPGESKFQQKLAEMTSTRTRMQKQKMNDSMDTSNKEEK
UniProt P48357, sequence (whole entry, unmodified, looked up): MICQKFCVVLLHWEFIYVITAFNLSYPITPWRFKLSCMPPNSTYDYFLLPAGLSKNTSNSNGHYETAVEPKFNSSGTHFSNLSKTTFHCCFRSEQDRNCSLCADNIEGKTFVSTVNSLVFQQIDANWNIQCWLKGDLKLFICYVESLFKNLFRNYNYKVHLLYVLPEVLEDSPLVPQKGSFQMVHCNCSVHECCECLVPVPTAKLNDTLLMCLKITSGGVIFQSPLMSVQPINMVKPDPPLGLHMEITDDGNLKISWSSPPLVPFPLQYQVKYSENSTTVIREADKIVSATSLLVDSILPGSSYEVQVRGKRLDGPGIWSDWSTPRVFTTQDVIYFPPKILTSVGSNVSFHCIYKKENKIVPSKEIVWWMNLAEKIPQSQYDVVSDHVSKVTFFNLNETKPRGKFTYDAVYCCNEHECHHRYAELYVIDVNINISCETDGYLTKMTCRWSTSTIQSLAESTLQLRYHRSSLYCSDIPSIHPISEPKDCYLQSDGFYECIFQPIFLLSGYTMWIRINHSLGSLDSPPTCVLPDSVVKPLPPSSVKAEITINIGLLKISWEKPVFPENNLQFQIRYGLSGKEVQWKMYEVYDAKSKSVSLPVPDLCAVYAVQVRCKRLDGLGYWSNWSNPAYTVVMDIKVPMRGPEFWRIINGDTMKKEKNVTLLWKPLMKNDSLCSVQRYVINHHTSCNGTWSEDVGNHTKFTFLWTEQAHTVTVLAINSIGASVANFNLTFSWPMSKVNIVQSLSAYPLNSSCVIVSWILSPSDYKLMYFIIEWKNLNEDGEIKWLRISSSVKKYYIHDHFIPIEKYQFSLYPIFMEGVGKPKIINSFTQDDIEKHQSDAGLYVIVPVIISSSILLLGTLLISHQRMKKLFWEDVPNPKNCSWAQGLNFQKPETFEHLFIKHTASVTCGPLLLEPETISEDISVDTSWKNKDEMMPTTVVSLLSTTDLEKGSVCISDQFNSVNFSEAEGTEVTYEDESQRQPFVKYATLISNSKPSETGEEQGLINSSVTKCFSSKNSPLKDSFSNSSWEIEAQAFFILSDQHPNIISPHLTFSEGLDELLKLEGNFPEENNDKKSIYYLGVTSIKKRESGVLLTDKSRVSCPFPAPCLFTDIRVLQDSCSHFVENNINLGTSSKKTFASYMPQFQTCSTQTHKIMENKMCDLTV
UniProt O43663, sequence (whole entry, looked up): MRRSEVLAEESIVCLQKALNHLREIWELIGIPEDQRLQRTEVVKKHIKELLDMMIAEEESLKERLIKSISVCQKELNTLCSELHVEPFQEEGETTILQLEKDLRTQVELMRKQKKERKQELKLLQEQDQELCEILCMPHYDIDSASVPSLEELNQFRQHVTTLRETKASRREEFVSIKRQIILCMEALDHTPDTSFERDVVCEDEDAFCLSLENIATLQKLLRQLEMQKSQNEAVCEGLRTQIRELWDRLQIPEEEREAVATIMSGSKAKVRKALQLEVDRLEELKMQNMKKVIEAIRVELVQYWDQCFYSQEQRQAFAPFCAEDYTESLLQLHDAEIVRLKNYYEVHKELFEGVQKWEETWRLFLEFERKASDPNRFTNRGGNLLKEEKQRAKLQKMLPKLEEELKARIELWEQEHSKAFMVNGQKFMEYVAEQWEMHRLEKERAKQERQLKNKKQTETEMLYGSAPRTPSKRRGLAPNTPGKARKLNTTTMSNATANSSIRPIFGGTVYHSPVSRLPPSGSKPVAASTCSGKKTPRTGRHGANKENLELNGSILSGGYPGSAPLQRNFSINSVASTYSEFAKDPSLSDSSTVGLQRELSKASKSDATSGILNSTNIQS
UniProt P54760, sequence (whole entry, looked up): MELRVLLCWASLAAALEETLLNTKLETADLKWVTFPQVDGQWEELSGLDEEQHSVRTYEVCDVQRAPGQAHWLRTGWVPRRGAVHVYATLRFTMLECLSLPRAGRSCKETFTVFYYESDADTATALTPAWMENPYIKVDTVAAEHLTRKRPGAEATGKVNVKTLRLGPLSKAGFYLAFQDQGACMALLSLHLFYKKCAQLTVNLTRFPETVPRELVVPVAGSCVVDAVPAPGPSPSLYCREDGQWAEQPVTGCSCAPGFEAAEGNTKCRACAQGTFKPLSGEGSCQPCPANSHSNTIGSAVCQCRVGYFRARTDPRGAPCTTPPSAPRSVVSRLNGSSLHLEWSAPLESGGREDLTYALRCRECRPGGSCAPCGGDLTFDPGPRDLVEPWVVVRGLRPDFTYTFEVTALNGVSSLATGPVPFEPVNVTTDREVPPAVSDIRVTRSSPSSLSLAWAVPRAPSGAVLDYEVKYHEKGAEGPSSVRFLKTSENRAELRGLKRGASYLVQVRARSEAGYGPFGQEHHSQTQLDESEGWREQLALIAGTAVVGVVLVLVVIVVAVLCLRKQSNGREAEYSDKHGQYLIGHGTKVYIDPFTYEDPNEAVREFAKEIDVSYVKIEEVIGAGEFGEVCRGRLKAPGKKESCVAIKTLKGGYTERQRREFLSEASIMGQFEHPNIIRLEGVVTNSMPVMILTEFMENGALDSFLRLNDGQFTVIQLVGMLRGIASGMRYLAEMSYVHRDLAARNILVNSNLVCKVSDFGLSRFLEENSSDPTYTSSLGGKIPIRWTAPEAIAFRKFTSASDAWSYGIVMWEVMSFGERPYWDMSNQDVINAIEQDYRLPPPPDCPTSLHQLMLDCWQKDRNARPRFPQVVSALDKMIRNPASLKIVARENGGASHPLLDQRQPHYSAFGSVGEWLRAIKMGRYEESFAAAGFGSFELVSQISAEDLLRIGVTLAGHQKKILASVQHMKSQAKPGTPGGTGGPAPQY
UniProt O60656, sequence (whole entry, looked up): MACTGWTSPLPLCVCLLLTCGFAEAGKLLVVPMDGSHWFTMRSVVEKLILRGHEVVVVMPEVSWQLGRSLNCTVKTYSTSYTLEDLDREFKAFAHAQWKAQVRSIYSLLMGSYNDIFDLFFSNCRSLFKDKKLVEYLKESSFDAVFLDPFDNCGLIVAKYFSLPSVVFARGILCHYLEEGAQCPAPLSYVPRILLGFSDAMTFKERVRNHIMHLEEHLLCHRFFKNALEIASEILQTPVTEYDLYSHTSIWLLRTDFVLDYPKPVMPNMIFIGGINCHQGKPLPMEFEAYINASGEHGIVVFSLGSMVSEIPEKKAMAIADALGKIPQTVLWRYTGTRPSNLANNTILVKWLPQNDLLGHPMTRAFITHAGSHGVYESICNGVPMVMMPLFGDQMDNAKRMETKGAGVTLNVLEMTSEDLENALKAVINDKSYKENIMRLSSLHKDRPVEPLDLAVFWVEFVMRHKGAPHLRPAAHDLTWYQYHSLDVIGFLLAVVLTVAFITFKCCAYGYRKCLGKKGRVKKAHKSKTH
UniProt Q13185, sequence (whole entry, looked up): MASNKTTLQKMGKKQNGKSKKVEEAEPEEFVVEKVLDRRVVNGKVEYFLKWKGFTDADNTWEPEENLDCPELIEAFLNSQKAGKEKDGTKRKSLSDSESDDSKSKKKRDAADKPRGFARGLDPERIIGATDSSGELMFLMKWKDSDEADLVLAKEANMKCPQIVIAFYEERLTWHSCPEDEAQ

`UGT1A9 (Homo sapiens, UniProt O60656)` gave a Vmax/Km of 849 µL/min/mg (COc1cc(-c2cc(=O)c3c(O)cc(O)cc3o2)cc(OC)c1OC; steady-state kinetics; pH 7.4, 37 °C).
For `B1 (DBI)`, the Kd was 0.006 µM (CPT1A 381-469 W391A, Cy3 label (Rattus norvegicus, UniProt P32198); FRET; 24 °C).
For `B2 (adrenodoxin)`, the Kd was 0.014 µM (CYP11B2 (Homo sapiens, UniProt P19099); MST; pH 7.4, 25 °C, oxidized, single-site model).
The Kd of `MPIFLDHILNKFWILHYASG (SPAM peptide; C-terminal propargylglycine, ROX label)` is reported as 0.067 ± 0.021 µM (CD274 ectodomain, N-glycosylated (Homo sapiens); fluorescence polarisation; peptide; 100 nM).
For `ARTKQTARKSTGGK (histone H3 2-15 (Homo sapiens, UniProt P68431); K9me3; sequence looked up)`, the Kd was 4.1 ± 1 µM (CBX3, C-terminal Atto532, amide (Homo sapiens, UniProt Q13185); MST; peptide).
With `{FITC}-GFID[pS]D[pT]DVEEE-NH2 (MDC1 phosphopeptide; FITC N-terminus, pS5, pT7, C-terminal amide; FITC = O=C1OC2(c3ccc(O)cc3Oc3cc(O)ccc32)c2ccc(NC(=S)*)cc21; pS = N[C@@H](COP(=O)(O)O)C(=O)O; pT = C[C@@H](OP(=O)(O)O)[C@H](N)C(=O)O)` the Kd was 210 ± 50 µM (TOPBP1 641-746 K704A (Homo sapiens, UniProt Q92547); fluorescence polarisation; peptide; NaCl 150 mM).
The Kd of `{FITC}-GFID[pS]D[pT]DVEEE-NH2 (peptide; N-terminal FITC, pS5, pT7, C-terminal amide; FITC = O=C1OC2(c3ccc(O)cc3Oc3cc(O)ccc32)c2ccc(NC(=S)*)cc21; pS = N[C@@H](COP(=O)(O)O)C(=O)O; pT = C[C@@H](OP(=O)(O)O)[C@H](N)C(=O)O)` is reported as 15 ± 1 µM (TOPBP1 641-746 (Homo sapiens, UniProt Q92547); fluorescence polarisation; peptide; pH 7.5, NaCl 150 mM).
With `B3 (Leptin mature)` the Kd was 0.00109 µM (LEPR 22-839 (Homo sapiens, UniProt P48357); SPR; pH 7.4, NaCl 150 mM).
For `{TMR}-QDDYLWGLEAGEGISDLFD (E2F2 409-428 (Homo sapiens); N-terminal TMR label; TMR = tetramethylrhodamine dye)`, the Kd was 0.0043 µM (RB1 55-787 del245-267/del582-642 (UniProt P06400); fluorescence polarisation; peptide; pH 8.0, NaCl 100 mM, two-site fit, added: E7 LxCxE peptide 10 µM).
The Kd of `B4 (Tiam1 PH-CC-Ex domain)` is reported as 0.287 µM (T1, BCR GAP domain; BLI).
For `KVAK[pS]PKKAKAW (H1-5 168-178 (Homo sapiens); pS172; pS = N[C@@H](COP(=O)(O)O)C(=O)O)`, the Kd was 1600 µM (PIN1 fragment (Homo sapiens); NMR titration; peptide; apparent Kd, single-residue fits).
`Gphn E domain , monomeric` gave a Kd of 44.1 µM (ARHGEF9 1-456, CB2-SH3+, FlAsH on tetra-cysteine motif (rat); CFP lifetime FRET, fluorescence titration; pH 8, NaCl 250 mM).
`ATRIP fragment, N-terminal FITC, aminohexanoic linker` gave a Kd of 0.35 µM (RPA1; fluorescence polarisation; pH 7.5, NaCl 75 mM).
The Kd of `B5 (CLASP1/GFP 1-654)` is reported as > 10 µM (PRC1 (Homo sapiens, UniProt O43663); BLI).
The Kd of `{DOTA}-TNYLFSPNGPIARAW (peptide; N-terminal DOTA; DOTA = O=C(O)CN1CCN(CC(=O)O)CCN(CC(=O)*)CCN(CC(=O)O)CC1)` is reported as 0.0233 µM (EPHB4 16-539 (Homo sapiens, UniProt P54760); SPR; peptide).
`{FITC′-Ahx}-ERLEAAACEVNDLG-NH2 (PRDM2 residues 254-267 (Homo sapiens); N-terminal fluorescein, aminohexanoyl spacer, C-terminal amide; FITC′ = fluorescein; Ahx = NCCCCCC(=O)O)` has a Kd of 70 ± 10 µM (RB1 372-581 linked 636-787 (Homo sapiens, UniProt P06400); ITC; peptide; competition).
`anti-CD45 clone #4/nivolumab diabody bispecific diabody` gave a Kd of 0.029 µM (PDCD1 ectodomain 25-170 (Homo sapiens, UniProt Q15116); SPR; 25 °C, equilibrium).
For `B6 (FADD 3-81)`, the Kd was 0.823 µM (CASP8 tandem DED Y8A, TAMRA label; fluorescence polarization; apparent).
`RAVTQYLLHLLQKARPTSQ (Clr3 peptide (Schizosaccharomyces pombe))` has a Kd of > 745 µM (Chp2 chromoshadow domain (Schizosaccharomyces pombe); NMR titration; peptide; pH 7.8, 303 K, KCl 150 mM).
For `ATRIP fragment E8A`, the Kd was 22 µM (RPA1; competition with ATRIP probe, fluorescence polarisation; pH 7.5, NaCl 75 mM).
For `{FITC-Ahx}-DFTADDLEELDTLAS-NH2 (ATRIP residues 54-68; SMILES CC(C)C[C@H](NC(=O)[C@H](CC(=O)O)NC(=O)[C@H](CC(=O)O)NC(=O)[C@H](C)NC(=O)[C@@H](NC(=O)[C@H](Cc1ccccc1)NC(=O)[C@H](CC(=O)O)NC(=O)CCCCCNC(=S)Nc1ccc2c(c1)C(=O)OC21c2ccc(O)cc2Oc2cc(O)ccc21)[C@@H](C)O)C(=O)N[C@@H](CCC(=O)O)C(=O)N[C@@H](CCC(=O)O)C(=O)N[C@@H](CC(C)C)C(=O)N[C@@H](CC(=O)O)C(=O)N[C@H](C(=O)N[C@@H](CC(C)C)C(=O)N[C@@H](C)C(=O)N[C@@H](CO)C(N)=O)[C@@H](C)O; N-terminal FITC-Ahx, C-terminal amide; FITC = O=C1OC2(c3ccc(O)cc3Oc3cc(O)ccc32)c2ccc(NC(=S)*)cc21; Ahx = NCCCCCC(=O)O)`, the Kd was 6.4 ± 1.1 µM (RPA1; fluorescence polarisation; peptide).

Repeated from above:
`Gphn E domain , monomeric` gave a Kd of 44.1 µM (ARHGEF9 1-456, CB2-SH3+, FlAsH on tetra-cysteine motif (rat); CFP lifetime FRET, fluorescence titration; pH 8, NaCl 250 mM).
`ATRIP fragment, N-terminal FITC, aminohexanoic linker` gave a Kd of 0.35 µM (RPA1; fluorescence polarisation; pH 7.5, NaCl 75 mM).
